Assay results of several laboratories.
Parts stem from different laboratories: compare values within a part only.

Block 1
Target: Sal-like protein 4, full length isoform A (SALL4, Homo sapiens, UniProt Q9UJQ4, residues 1-1053)
Sequence of UniProt Q9UJQ4 (whole entry, looked up): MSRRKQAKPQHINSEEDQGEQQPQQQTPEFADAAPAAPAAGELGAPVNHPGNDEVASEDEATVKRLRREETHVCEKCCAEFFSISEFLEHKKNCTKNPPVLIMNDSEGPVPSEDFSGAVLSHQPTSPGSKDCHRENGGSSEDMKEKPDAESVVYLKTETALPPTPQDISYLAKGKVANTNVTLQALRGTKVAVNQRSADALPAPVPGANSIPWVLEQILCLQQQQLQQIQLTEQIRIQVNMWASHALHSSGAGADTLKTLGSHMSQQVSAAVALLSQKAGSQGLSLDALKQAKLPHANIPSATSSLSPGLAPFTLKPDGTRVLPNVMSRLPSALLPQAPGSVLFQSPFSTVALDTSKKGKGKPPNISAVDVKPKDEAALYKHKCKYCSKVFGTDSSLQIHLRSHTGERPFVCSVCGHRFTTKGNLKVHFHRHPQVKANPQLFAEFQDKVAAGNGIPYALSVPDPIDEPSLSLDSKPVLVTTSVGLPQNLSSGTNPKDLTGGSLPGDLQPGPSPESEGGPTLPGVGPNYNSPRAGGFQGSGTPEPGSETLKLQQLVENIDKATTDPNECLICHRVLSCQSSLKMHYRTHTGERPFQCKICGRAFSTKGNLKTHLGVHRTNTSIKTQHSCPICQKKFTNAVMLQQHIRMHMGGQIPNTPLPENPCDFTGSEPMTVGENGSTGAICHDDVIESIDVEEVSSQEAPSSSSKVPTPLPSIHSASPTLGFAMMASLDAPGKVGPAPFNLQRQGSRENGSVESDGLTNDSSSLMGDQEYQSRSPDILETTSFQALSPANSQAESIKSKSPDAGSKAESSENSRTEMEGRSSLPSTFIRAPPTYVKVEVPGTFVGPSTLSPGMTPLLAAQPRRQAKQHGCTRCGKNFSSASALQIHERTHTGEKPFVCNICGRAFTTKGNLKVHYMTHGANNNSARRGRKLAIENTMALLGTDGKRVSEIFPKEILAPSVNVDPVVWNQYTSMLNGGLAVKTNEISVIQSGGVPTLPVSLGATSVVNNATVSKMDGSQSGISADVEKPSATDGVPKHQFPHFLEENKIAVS
Technique: universal PBM
Form: double-stranded DNA, one strand shown
Sample: in vitro
Tested at: 600 nM
Notes: 8-mer, flanks averaged, mean of replicates
Reading: higher = stronger binding
With `AAAGGCAT` the E-score was 0.105.
`AGCATATC` has an E-score of 0.159.
For `CGAGCCTA`, the E-score was -0.125.
`CCGCCTCG` has an E-score of -0.272.
`CGACGTTC` has an E-score of -0.214.
`ATTCTCAA` gave an E-score of 0.249.

Block 2
Target: Interferon regulatory factor 7, full length, phosphomimetic (IRF7, Homo sapiens, UniProt Q92985, residues 1-503, S471D/S472D/S475D/S476D/S477D/S483D/S484D/S487D)
Sequence of UniProt Q92985 (whole entry, unmodified, looked up): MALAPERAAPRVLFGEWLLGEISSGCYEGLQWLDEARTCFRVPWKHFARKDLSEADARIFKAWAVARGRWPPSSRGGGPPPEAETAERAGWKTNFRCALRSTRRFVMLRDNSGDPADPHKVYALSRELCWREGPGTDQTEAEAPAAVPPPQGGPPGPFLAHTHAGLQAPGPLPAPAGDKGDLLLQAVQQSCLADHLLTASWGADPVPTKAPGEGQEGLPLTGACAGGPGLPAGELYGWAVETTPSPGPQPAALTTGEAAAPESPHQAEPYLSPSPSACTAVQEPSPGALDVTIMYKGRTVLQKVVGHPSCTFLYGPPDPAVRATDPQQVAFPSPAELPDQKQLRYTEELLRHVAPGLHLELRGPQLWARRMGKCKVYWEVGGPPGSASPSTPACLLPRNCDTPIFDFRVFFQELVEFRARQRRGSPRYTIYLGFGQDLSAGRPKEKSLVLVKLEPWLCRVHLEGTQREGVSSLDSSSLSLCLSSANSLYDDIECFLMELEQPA
Technique: protein-binding microarray
Form: double-stranded DNA, one strand shown
Sample: in vitro
Tested at: 2200 nM top
Notes: 60-bp whole probe
Added: salmon DNA 0.4 mg/ml
Baseline: random background probes
Reading: higher = stronger binding
Constant ends, left off below: GCCTAGCAC … GTCTTGATTCGCTTGACGCTGCTG
Under “fitted relative affinity”, `TTAGATTTCAGGTTTCGATTAGTGCTA` is recorded as 4.09 z-score.
`GACGGTTTCCGACTGGGGACGTGCTAG` — result for “fitted relative affinity”: 1.68 z-score.
For `TCAAATGTCCTCCTCTCACTGTGCTAG`, “fitted relative affinity” read 1.47 z-score.
`GACGATATCAGACTGGAGAAGTGCTAG`: “fitted relative affinity” -0.298 z-score.
`TCAACCTTGAACTTCGGACTGTGCTAG` — result for “fitted relative affinity”: 0.377 z-score.
`TTAGGTATCGGGTATTGGTTAGTGCTA` — result for “fitted relative affinity”: 0.596 z-score.

Block 3
Target: Max-binding protein MNT, bHLH-zipper, MAX partner unstated (MNT, Homo sapiens, UniProt Q99583, residues 220-300)
Technique: protein-binding microarray
Form: double-stranded DNA, one strand shown
Sample: in vitro
Tested at: not given
Notes: k-mer, scored over probes, only values ≥0.25
Reading: higher = stronger binding
Target sequence (chain): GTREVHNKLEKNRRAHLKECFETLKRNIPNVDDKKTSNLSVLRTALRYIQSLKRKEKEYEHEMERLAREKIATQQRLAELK
For `CCGTGCGC`, the E-score was 0.315.
`ACACGTGT` has an E-score of 0.498.
With `ACGCGGTG` the E-score was 0.34.
For `CCCACCGC`, the E-score was 0.279.
With `CACGCCAA` the E-score was 0.266.
With `CATGCCTA` the E-score was 0.304.
The E-score of `CACCTGCG` is reported as 0.318.

Single results of other studies
`PhoQ, residues 284 288 289 292 302 303 SVHLDV` has a fold induction of 3.53 (PhoP, residues 12 14 15 18 19 STWGI (Escherichia coli, UniProt P23836); Sort-seq, item: YFP reporter; E. coli; PhoQ-PhoP variant library, added: 10 µM Mg2+; baseline: high Mg2+ state, higher = stronger signaling).
